# Measurements of several laboratories.
# Numbered parts are unrelated; each lists some results of a single study. Positions count from the first letter of the parent shown.

# Set 1
# Target: Histone acetyltransferase KAT6A, winged helix 1, GST fusion (KAT6A, Homo sapiens, UniProt Q92794, residues 1-85)
# Technique: protein binding microarray
# Form: double-stranded DNA, one strand shown
# Sample: in vitro
# Tested at: not given
# Setting: 8-mer, flanks averaged, mean of 2 arrays, mostly near background
# Baseline: not given
# Reading: higher = stronger binding
# Residues (chain): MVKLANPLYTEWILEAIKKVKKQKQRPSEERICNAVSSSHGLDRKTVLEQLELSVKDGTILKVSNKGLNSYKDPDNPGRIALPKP
Sequence,E-score
CCCCGACG,0.42
CTTAAGGC,-0.00451
CAGCAGGA,-0.345
ACATTCAA,-0.0552
ACGTTACG,0.0655
AGGTACAT,-0.116
GTTCGAGA,-0.00188
AATTGGCT,-0.26
CTCCGGAG,0.0328
CTAACCGC,0.228
CCGATGAA,0.0221
GGACTGCC,0.00464
AAAGCTTC,-0.0453
ATTGTGCG,0.171
GGCGGGGA,0.346
CGGTTCCA,0.0619
CTCCTACA,-0.168
TACCGTAA,0.199
AACTGCCG,0.227
GATTGCAA,-0.271

# Set 2
# Target: OGT, full length, His-tagged (human)
# Technique: phage display, sequencing
# Sample: in vitro
# Tested at: 1 µg OGT
# Setting: single substitutions, 15-mer displayed peptide, unchanged parent 5.27
# Baseline: input library
# Reading: higher = stronger binding
# Parent: peptide; GDFPVMFMPKYSIIY
Change,fold enrichment [fold]
K10G,1.24
P9N,2.2
M8K,1.5
G1A,5.45
G1D,6.64
D2A,5.6
Y15T,1.57
F3V,3.81
Y15V,7.35
I13T,0.862
D2R,5.17
I13M,1.45
I13V,1.29

# Set 3
# Target: Prothrombin, mature alpha-thrombin (F2, Homo sapiens, UniProt P00734)
# Technique: aptamer microarray, sandwich
# Form: DNA with 2'F-ANA
# Sample: in vitro
# Tested at: 200 nM
# Setting: whole 15-mer aptamer, many near background
# Together with: Cy3 exosite-II aptamer, 400 nM
# Reading: higher = stronger binding
# Sequence: GGTTGGTGTGGTTGG
Modification,mean fluorescence intensity
2'F-ANA at 1 2 3 4 6 7 9 10 11 15,58 a.u.
2'F-ANA at 2 3 4 5 7 12,218 a.u.
2'F-ANA at 2 4 6 7 8 9 13 14,81 a.u.
2'F-ANA at 3 4 6 7 12,1050 a.u.
2'F-ANA at 4 6 9 11 12,425 a.u.
2'F-ANA at 2 3 7 8 9 10 11 14 15,269 a.u.
2'F-ANA at 1 4 5 7 10 11 12 13 14 15,156 a.u.
2'F-ANA at 1 2 3 4 5 6 7 10 13 14 15,77.6 a.u.
2'F-ANA at 1 5 8 9 11 13,98.1 a.u.
2'F-ANA at 2 5 6 8 9 10 11,51.2 a.u.
2'F-ANA at 2 3 4 6 7 9 15,480 a.u.
2'F-ANA at 7 8 9 10 12,224 a.u.
2'F-ANA at 3 6 7 8 9 10 11 12 13,503 a.u.
2'F-ANA at 6 8 10 11 13,153 a.u.
2'F-ANA at 2 5 7 8 12 14,48.2 a.u.
2'F-ANA at 3 4 6 8 9 11 13 14 15,278 a.u.
2'F-ANA at 1 3 4 7 8 10 12 14,54.5 a.u.
2'F-ANA at 1 2 7 8 12 15,477 a.u.
2'F-ANA at 1 2 4 5 6 8 9 11 15,76.3 a.u.
2'F-ANA at 5 8 11 15,62.6 a.u.
2'F-ANA at 1 3 6 9 14,76.5 a.u.
2'F-ANA at 1 2 4 5 6 8 9 10 11 12 15,52.8 a.u.

# Set 4
# Target: Fragile X messenger ribonucleoprotein 1, C-terminal low-complexity region (Fmr1, Mus musculus, UniProt P35922)
# Technique: RNA Bind-n-Seq
# Form: RNA
# Sample: in vitro
# Tested at: 200 nM
# Setting: whole 134-nt RNA, ends assumed
# Together with: 150 mM KCl
# Baseline: input library
# Reading: higher = stronger binding
Sequence,log2 enrichment
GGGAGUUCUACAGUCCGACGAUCUCAAGUCCUGUGCUACACAUCGUAUGUACCGAAUCGGGGUUGGGGUUGGGUUGGGAAAGUAUUAUGUUACGCCGUUCGGAUCUGCACUUCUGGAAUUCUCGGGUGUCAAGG,1.15
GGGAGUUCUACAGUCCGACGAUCUGGGAGGUGGAUUUUGUUUAUUUUUUUAGCUCAUUUCCAGGGGUGGGAAUUUUUUUUUAAUAUGUGUCAUGAAUAAAGUUGUUUAUGAAAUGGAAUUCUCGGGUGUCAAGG,0.251
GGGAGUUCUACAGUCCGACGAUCUCAAGUCCUGUGCUACACAUCGUAUGUACCGAAUCGGCCCGGCCCGGGGCCCGGGAAAGUAUUAUGUUACGCCGUUCGGAUCUGCACUUCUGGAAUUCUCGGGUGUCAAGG,-0.301
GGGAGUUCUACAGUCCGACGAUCCUCAAGUCCUGUGCUACACAUCGUAUGUACCGAAUCGGGGAAGGGGAAGGAAGGAAAGUAUUAUGUUACGCCGUUCGGAUCUGCACUUCCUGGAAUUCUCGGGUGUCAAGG,-0.133
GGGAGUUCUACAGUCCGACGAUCCUCAAGUCCUGUGCUACACAUCGUAUGUACCGAAUCGGUUUGGAAAGGUUUGGAAAGUAUUAUGUUACGCCGUUCGGAUCUGCACUUCCAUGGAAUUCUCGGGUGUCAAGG,-0.483
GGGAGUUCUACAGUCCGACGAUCUAACUUUAGAGGAGGAUCUGAUGGAAAUGGCAGUGGACGUGGAUUUGGGGAUGGCUAUAAUGGGUAUGGAGGAGGACCUGGAGGUGGCAAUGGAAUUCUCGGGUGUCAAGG,0.256
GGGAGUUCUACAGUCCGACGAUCCUGUGCUACACAUCGUAUGUACCGAAUCGGGUUUUUUUGGGGUUUUUUUGGGUUUUUUUGGGAAAGUAUUAUGUUACGCCGUUCGGAUCUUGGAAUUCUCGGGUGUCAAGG,-0.0856
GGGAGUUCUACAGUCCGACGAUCUGGCCCUGGUGGCAUGCGGGGAGGAAGAGGUGGCCUCAUGGAUCGUGGUGGUCCCGGUGAAAUGUUCAGAGGUGGCCGUGGUGGAGACAGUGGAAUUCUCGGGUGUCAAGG,-0.173
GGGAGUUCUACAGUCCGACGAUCCUCAAGUCCUGUGCUACACAUCGUAUGUACCGAAUCGGGUGGGAAAGGGUGGGAAAGUAUUAUGUUACGCCGUUCGGAUCUGCACUUCCAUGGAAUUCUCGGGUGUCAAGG,1.1

# For quick reference, copied from above (set 1):
Sequence,E-score
CAGCAGGA,-0.345
ACATTCAA,-0.0552
ACGTTACG,0.0655
AGGTACAT,-0.116
GTTCGAGA,-0.00188
